Assay results of several laboratories.
Lines come from different studies, so protocols differ. Numbers after ± are the reported error.

Structure (SMILES)	tested on	test	test system	setting	how to read	quantity	value
CC(C)[C@H](NC(=O)CNC(=O)[C@H](CCC(N)=O)NC(=O)[C@H](C)N)C(=O)O			human	single dose, 10 mg/kg		probably related adverse events	0%
C[C@H]1N=C(c2ccccc2F)c2cc(Br)ccc2-n2cnc(C(=O)NCCS(=O)(=O)O)c21			Swiss Webster mouse	intravenous, 250 µg of parent drug, 0 to 48 h	relative to: dose	excretion in urine and feces	7.6 ± 3.2%
CC[C@H](C)C(=O)N1CCC(NC(=O)Nc2ccc(OC(F)(F)F)c(F)c2)CC1			healthy volunteers	oral, 2 mg single dose		subjects with headache TEAE	16.7%
CN[C@](C)(C[18F])C(=O)O	A549 tumour model		host not given, kidney	1 h, tumour-bearing		tracer uptake	4.1 %ID/g
CCCCCCCC/C=C\CCCCCCCCOP(O)(O)=S.N			mouse, female, irradiated	sc, dose not given, 15.6 Gy partial-body, dosed 24 h after		Cmax	407 ng/mL
CC(C)(CCCC/C=C/CCCCCC(C)(C)C(=O)O)C(=O)O			rhesus monkey, male, hyperlipidaemic, plasma	oral, 20 mg/kg, first dose		AUC(0-inf)	5680 ± 1430 µg·h/mL
COC(=O)C[C@H](NC(=O)[C@H](C)NC(=O)[C@@H](NC(=O)[C@H](CC(=O)OC)NC(=O)[C@@H](NC(=O)c1ccc2ccccc2n1)C(C)C)C(C)C)C(=O)COc1c(F)cccc1F			rat pups	1 mg/kg, 1 h		core body temperature	36.4 ± 0.67 °C
CC[C@H](C)[C@H](NC(=O)CNC(=O)[C@H](Cc1c[nH]cn1)NC(=O)[C@H](CC(C)C)NC(=O)CNC(=O)[C@H](CC(C)C)NC(=O)[C@H](CCCCN)NC(=O)[C@H](Cc1ccccc1)NC(=O)[C@H](CC(C)C)NC(=O)[C@H](CCCCN)NC(=O)CNC(=O)[C@H](Cc1c[nH]c2ccccc12)NC(=O)[C@H](Cc1ccccc1)NC(=O)CN)C(=O)NCC(=O)N[C@@H](CC(C)C)C(=O)N[C@@H](CC(C)C)C(=O)N[C@@H](Cc1c[nH]cn1)C(=O)N[C@@H](CC(C)C)C(=O)N[C@@H](Cc1c[nH]cn1)C(=O)N[C@@H](CC(C)C)C(N)=O			zebrafish embryos	1 h, 4, 28, 52 hpf		acute toxic concentration	1 to 5 µg/mL
CC(C)C[C@@H](N)C(=O)NCC(=O)N[C@H](C)C(=O)N[C@H](CO)C(=O)N[C@H](Cc1c[nH]c2ccccc12)C(=O)N[C@H](Cc1c[nH]cn1)C(=O)N[C@H](CCCNC(=N)N)C(=O)N1CCC[C@@H]1C(=O)N[C@H](CC(=O)O)C(=O)N[C@H](CCCCN)C(=O)N[C@H](CS)C(=O)N[C@H](CS)C(=O)N[C@H](CC(C)C)C(=O)NCC(=O)N[C@H](Cc1ccc(O)cc1)C(=O)N[C@H](CCC(N)=O)C(=O)N[C@H](CCCCN)C(=O)N[C@H](CCCNC(=N)N)C(=O)N1CCC[C@@H]1C(=O)N[C@H](CC(C)C)C(=O)N1CCC[C@@H]1C(N)=O		LC-MS/MS	rat plasma	25 ng/mL, 30 days, -80 °C, storage		measured concentration	24.8 ± 3.2 ng/mL
CC(C)[C@H](NC(=O)CNC(=O)[C@H](CCC(N)=O)NC(=O)[C@H](C)N)C(=O)O			healthy male volunteers	intravenous, 45 mg/kg/h, 2 h, added: LPS 2 ng/kg		subjects with mild AE	25%
O.[C-]#[O+].[C-]#[O+].[C-]#[O+].[Re+].c1cnc2c(c1)ccc1cccnc12		RP-HPLC C18 column, measured: aqua complex	MeCN:water 40:60, 0.1% TFA	isocratic elution		capacity factor	2.1

A few entries again:
Structure (SMILES)	tested on	test	test system	setting	how to read	quantity	value
CC(C)(CCCC/C=C/CCCCCC(C)(C)C(=O)O)C(=O)O			rhesus monkey, male, hyperlipidaemic, plasma	oral, 20 mg/kg, first dose		AUC(0-inf)	5680 ± 1430 µg·h/mL
CN[C@](C)(C[18F])C(=O)O	A549 tumour model		host not given, kidney	1 h, tumour-bearing		tracer uptake	4.1 %ID/g
